Measured values of several laboratories.
Numbered parts are unrelated; each lists some results of a single study.

Series 1 — method: protein-binding microarray; form: hairpin DNA; medium: in vitro; concentration: not given; baseline: not given; reading: higher = stronger binding
Target: Hepatocyte nuclear factor 3-beta, forkhead domain (FOXA2, Homo sapiens, UniProt Q9Y261, residues 142-269)
Setting: whole hairpin DNA, median over replicate spots
Residues (chain): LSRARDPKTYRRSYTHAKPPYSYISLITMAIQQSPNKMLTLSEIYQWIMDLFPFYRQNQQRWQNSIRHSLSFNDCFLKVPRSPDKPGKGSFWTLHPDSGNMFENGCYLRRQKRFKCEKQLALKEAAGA
Strand	median fluorescence [a.u.]
GAGGCCACGTAACCAACGCCTCCTGGCGTTGGTTACGTGGCCTCACACTC (5mC at 8 36)	3240
GAGGCCCGGTAAACAACGCCTCCTGGCGTTGTTTACCGGGCCTCACACTC (5mC at 7 37)	3790
GAGGCCATGTACCCAACGCCTCCTGGCGTTGGGTACATGGCCTCACACTC (5mC at 12)	3180
GAGGCCCGGCAAACAACGCCTCCTGGCGTTGTTTGCCGGGCCTCACACTC (5mC at 37)	3860
GAGGCCATGCAAACAACGCCTCCTGGCGTTGTTTGCATGGCCTCACACTC (5mC at 10)	6170
GAGGCCATGTAAACCGCGCCTCCTGGCGCGGTTTACATGGCCTCACACTC (5mC at 15 29)	3380
GAGGCCACGTAACCAACGCCTCCTGGCGTTGGTTACGTGGCCTCACACTC	3250
GAGGCCATGCAAACAAAGCCTCCTGGCTTTGTTTGCATGGCCTCACACTC	3760

Series 2 — method: RNAcompete; form: RNA; medium: in vitro; concentration: 20 nM; setting: 7-mer, probes averaged, single round; baseline: mean of 7-mers; reading: higher = stronger binding
Target: PABPC1L2, full length, GST fusion (mouse, UniProt A0ABA7IW68)
Target sequence (chain): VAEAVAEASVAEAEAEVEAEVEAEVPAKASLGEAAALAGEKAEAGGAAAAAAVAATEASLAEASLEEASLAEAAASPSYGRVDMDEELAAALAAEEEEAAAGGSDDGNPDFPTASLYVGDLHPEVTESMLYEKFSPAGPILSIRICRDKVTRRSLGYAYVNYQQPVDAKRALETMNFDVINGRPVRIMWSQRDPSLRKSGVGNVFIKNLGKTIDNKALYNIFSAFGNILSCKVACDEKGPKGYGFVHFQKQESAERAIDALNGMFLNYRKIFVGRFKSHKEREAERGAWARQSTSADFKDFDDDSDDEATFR
Strand	7-mer Z-score
GUAAAAG	1.56
ACGGGUC	0.0189
UAGUUUA	-0.322
UGGACAG	0.075
CCCGUCC	-0.467
CGUCGAC	-0.293
AUGAUAG	-0.0482
CAACGGA	0.0913

Series 3 — method: protein-binding microarray; form: double-stranded DNA, one strand shown; medium: in vitro; concentration: not given; reading: higher = stronger binding
Target: Transcriptional repressor CTCF (CTCF, Homo sapiens, UniProt P49711, residues 1-727, full length assumed)
UniProt P49711, sequence (whole entry, looked up): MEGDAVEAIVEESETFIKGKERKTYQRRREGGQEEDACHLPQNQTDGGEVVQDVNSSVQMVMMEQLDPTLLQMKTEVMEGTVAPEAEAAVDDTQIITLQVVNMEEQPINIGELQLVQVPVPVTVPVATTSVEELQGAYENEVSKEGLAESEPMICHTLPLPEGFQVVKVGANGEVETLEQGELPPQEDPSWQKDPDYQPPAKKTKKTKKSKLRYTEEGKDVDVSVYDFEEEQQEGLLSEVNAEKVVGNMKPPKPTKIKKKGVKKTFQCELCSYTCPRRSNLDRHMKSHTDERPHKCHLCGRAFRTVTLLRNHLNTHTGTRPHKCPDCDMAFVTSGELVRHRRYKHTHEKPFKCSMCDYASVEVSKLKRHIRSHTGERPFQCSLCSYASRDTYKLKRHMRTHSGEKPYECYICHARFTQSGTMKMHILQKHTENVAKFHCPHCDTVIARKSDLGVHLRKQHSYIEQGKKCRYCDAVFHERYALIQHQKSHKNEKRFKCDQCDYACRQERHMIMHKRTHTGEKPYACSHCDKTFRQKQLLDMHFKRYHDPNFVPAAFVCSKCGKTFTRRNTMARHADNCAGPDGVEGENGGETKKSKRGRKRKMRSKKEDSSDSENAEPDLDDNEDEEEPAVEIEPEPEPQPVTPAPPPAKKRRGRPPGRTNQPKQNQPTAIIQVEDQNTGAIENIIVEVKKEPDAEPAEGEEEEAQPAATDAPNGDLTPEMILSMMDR
Setting: k-mer, scored over probes, only values ≥0.25
Strand	E-score
CGCCCACA	0.282
ACCGTAAA	0.265
CGAATTTC	0.281
ATTGGCGC	0.314
ATGTTGTG	0.297
CATGATTA	0.3
AAACGGTA	0.294
AGAGGGCG	0.289

Mixed results
Compound	host	medium	concentration	time	measurement	value
CCOC(=O)C1(Cc2ccccc2)Nc2ccccc2C1=O (stereo not shown)	human	microsomes or S9	2 µM	0.5 h	remaining compound	0.684%

Repeated from above (series 3):
Strand	E-score
ACCGTAAA	0.265
